Assay results pooled from the literature.
Numbered parts are unrelated; each lists some results of a single study. Positions count from the first letter of the parent shown.

Block 1
Target: Interferon regulatory factor 3, full length, phosphomimetic (IRF3, Homo sapiens, UniProt Q14653, residues 1-427, S386D/S396D/S398D/S402D/T404D/S405D)
UniProt Q14653, sequence (whole entry, unmodified, looked up): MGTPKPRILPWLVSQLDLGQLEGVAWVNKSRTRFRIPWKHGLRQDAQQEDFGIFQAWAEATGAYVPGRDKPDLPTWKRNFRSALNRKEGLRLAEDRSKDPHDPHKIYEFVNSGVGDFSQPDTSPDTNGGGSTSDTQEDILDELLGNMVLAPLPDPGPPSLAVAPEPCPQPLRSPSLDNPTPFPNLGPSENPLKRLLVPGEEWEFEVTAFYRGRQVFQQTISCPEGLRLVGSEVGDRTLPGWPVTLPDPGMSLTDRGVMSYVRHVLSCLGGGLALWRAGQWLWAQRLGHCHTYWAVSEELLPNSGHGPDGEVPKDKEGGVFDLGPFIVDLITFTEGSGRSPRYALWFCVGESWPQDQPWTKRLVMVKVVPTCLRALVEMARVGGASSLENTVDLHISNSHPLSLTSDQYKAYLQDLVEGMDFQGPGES
Technique: protein-binding microarray
Molecule type: double-stranded DNA, one strand shown
Sample: in vitro
Concentration: 2540 nM top
Setting: 60-bp whole probe
With: salmon DNA 0.4 mg/ml
Reference: random background probes
Reading: higher = stronger binding
Measurement: fitted relative affinity
All sequences stand within: GCCTAGCAC … GTCTTGATTCGCTTGACGCTGCTG
TTAGGTCTCGCTTTCGGTTAGTGCTAG: 2.69 z-score
GACGGTATCGGACTGGGGGCGTGCTAG: 1.59 z-score
TCAGATTTCAGTTTTCTACTGTGCTAG: 3.37 z-score
GACGAAATCAGTATCGAGACGTGCTAG: 0.998 z-score
TCAATTCTCTGCTTCTGACTGTGCTAG: 0.734 z-score
TTAGAACTGAGACTGGATAAGTGCTAG: -0.242 z-score
GACGGACTGGGGCATCGGGACGTGCTA: -1.11 z-score
TTTGGCTTTCCTTTATGTCCGTGCTAG: 3.39 z-score
TTAGGACTGGACTTTCGGTTAGTGCTA: 0.931 z-score
GACGATATCAGTATCGTGACGTGCTAG: 1.14 z-score
TTAGGTCCCGGTCTCGGTTAGTGCTAG: 0.629 z-score
TTGGGTTTCGGTTTCGGTTAGTGCTAG: 10.6 z-score
TATGAAATGGAAGTTTAGGGGTGCTAG: -0.394 z-score
CAAATACTCTTCCATGGAGAAGTGCTA: 1.94 z-score
TCAAGTCTAGCCATTGTGACTGTGCTA: -0.892 z-score
TTATAACTGGGGACTGGATTAGTGCTA: -0.274 z-score
TTAGAACTGGTGTTTCGATTAGTGCTA: 1.28 z-score

Block 2
Target: RNA binding protein fox-1 homolog 2, RRM domain, GST-SBP tag (RBFOX2, Homo sapiens, UniProt O43251-10, residues 100-194)
Technique: RNA Bind-n-Seq
Molecule type: RNA
Sample: in vitro
Concentration: 365 nM
Setting: natural RNA segment, single round, ends assumed
Reference: no-protein control
Reading: higher = stronger binding
Measurement: RBNS enrichment (R)
All sequences stand within: GGGAGUUCUACAGUCCGACGAUC … UGGAAUUCUCGGGUGCCAA
Construct (chain): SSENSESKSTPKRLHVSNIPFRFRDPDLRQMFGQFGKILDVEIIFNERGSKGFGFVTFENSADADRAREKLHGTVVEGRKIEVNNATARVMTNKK
UUUAAUACAUAAAUGAACGGGUACUGGUGCCUCUUUAUUUUUAAAAAUUUGAAGAAAAAGAGCCACCUCAUAUUCAUAGAGUGUGUAUUUUGUGAGUGUGUGAGCAUUUG: 0.309
AAGAAGCCUUGAAGACUGGACAAGGGAGGACAGGGUGGAGCAGGGAUAGCCGUGGCUUCAUUUAUCGUUUGCACCCAGGAGGCCUUGUAGUCUUCCAAUUGCAGGAGAUC: 0.329
GUAAUAAGACUAUCGUCUUCCUACACAUAGGAGGCUCAUUCUCUGGACACACUAUCACCUAUUACAUUUUACUGAUUAACAAAUAAAUUGGAAUUUAAAAAUAUCGAUAU: 0.626
AUUGCUCUGUAGACCACGCUGGCUUCGAACUCACAGAGAUCUGUAUUGUCUCUGCCUCCUGAGUGCUGAGAUUAGAGGUUGUGUGCCAUCACCUCUGGGUACUUUUUUAU: 0.557
UGCCCACCCCGGCUGCUCUUGACACUUCCAUUGUGUGUGGGAACGUUUCUUCUGGAGAAUUGGAACAUGUGUGGCCCCAAGCUCAACAGAAACCAGUUGUUCCCAAUCUG: 0.581
CAGCUUGGCUUGGCUUUGGCUGUUGGGGAGGAGUCCCUGCCAUCCCGGUGAGCCUGGGGCUGUUGCUUAGGGUCUUCUGGGUGGACACGUGGAGAAAGAGAAGGCAAACG: 0.412
AGAACCAAAGCAACCACAAAUGCAUAAAUGCAUAAUUUAUGGUCUUCAACCAAGGCCACAUAAUAACCCAGUUAACUUACUCUUUAACCAGGAAUAUUAAGUUCUAUAAC: 0.686
UUUGCCUCAUAGGCAGAGGAUUCUCCAGGAAGCAUGGAAAAUGGAAUGUUUCCAUGCUUUACAGUGCUGGGAGAGAGGGGAGAUGUGGGCAGGACCUUUUGGAAGGAUGU: 3.35
GAUAUAUUCCUUUACCUCACAUGACCCCAGCAACUGUGGUGGUAUCUAGAGGUGAAACAGGCAAGUGAAAUGGACACCUCUGCUGUGAAUGUUUUAGAGAAGGAAAUUCA: 2.79
AUUCAUUUGACUCAGCUGAUUGUGUCACAUCUUUUAAAUACUGGUAAAUAUGGAUAUACCAAGUAUUUAAUGACUAAUGCACAUAGAAAUUAAUAUUAAUACAGUGAUCU: 0.464
UUGUUGUCAACUGUCACUGUUUCUUCCAAAAGUCACAAUUUGUACAAGAACCUUUGCUUUCCUUAGACUUGUUCUGCAUUUUAUUUUUUAUUUCUCACCAAAAUAAAAGC: 0.533
UCAUUCCAGGUCGGCAUCCUCCGGCAAUGGCAGCUGACCCUAUAUGGCUCUGUGUGGAGUGCAGUAGACAUCAGGGACAGACAAAGGCUGUUAGAGAGUGCCAUGAGUGG: 0.445

Block 3
Target: Max-binding protein MNT, bHLH-zipper, MAX partner unstated (MNT, Homo sapiens, UniProt Q99583, residues 220-300)
Technique: protein-binding microarray
Molecule type: double-stranded DNA, one strand shown
Sample: in vitro
Concentration: not given
Setting: k-mer, scored over probes, only values ≥0.25
Reading: higher = stronger binding
Measurement: E-score
Target sequence (chain): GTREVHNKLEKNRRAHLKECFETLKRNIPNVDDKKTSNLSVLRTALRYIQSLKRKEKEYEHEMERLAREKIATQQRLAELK
ACAACCCC: 0.286
CCACGTGA: 0.494
AAACCATG: 0.323
CACGTGCG: 0.495
CGTGGCTA: 0.38
ACGTGAAG: 0.335
ACGCGTGC: 0.446
GGAGGGGA: 0.288
ACGTGCTA: 0.451
AATCATGC: 0.286
CGCTCACG: 0.28
ACCACGCT: 0.404
CACATGGA: 0.473
CGTGCATC: 0.337
AAACACAC: 0.273
GCAGGCAC: 0.289
GGCATGCA: 0.344
ATACCCCA: 0.261
CGTGTTTC: 0.302
CATCACGC: 0.338
CGCACACC: 0.294
CACGTGTA: 0.495
CATGCCTC: 0.34
AACATGCC: 0.304
CACCCCAA: 0.317

Block 4
Target: UBE2I UBC core domain (UniProt P63279)
Technique: yeast two-hybrid
Sample: yeast
Setting: mostly zero background
Reference: not given
Reading: higher = stronger interaction
Measurement: lacZ reporter activity
B1: RC3H2 RING domain (UniProt Q9HBD1); chain QAAQWTEFLSCPICYNEFDENVHKPISLGCSHTVCKTCLNKLHRKACPFDQTAINTDIDVL
B2: CUL9 RING domain (UniProt Q8IWT3); chain AQAVPVRPDHCPVCVSPLGCDDDLPSLCCMHYCCKSCWNEYLTTRIEQNLVLNCTCPIADCPAQPTGAFIR
B3: RNF25 RING domain (UniProt Q96BH1); chain LTDNNIPHGQCVICLYGFQEKEAFTKTPCYHYFHCHCLARYIQHMEQELKAQGQEQEQERQHATTKQKAVGVQCPVCREPLVYDLASL
B4: ARK2C RING domain (UniProt Q6ZSG1); chain EGEESDTDEKCTICLSMLEDGEDVRRLPCMHLFHQLCVDQWLAMSKKCPICRVDIETQLGAD
B5: TRIM63 RING domain (UniProt Q969Q1); chain PMENLEKQLICPICLEMFTKPVVILPCQHNLCRKCANDIFQAANPYWTSRGSSVSMSGGRFRCPTCRHEVIMDRHGV
B6: TRIM69 RING domain (UniProt Q86WT6); chain VIQDITMELHCPLCNDWFRDPLMLSCGHNFCEACIQDFWRLQAKETFCPECKMLCQYNNCTF
FPEHFVKSISCQICEHILADPVETNCKHVFCRVCILRCLKVMGSYCPSCRYPCFPTDLES (RAG1 RING domain (UniProt P15918)): 0
B1 (RC3H2 RING domain): 0
DDENSDNSNECVVCLSDLRDTLILPCRHLCLCTSCADTLRYQANNCPICRLPFRALLQIR (MGRN1 RING domain (UniProt O60291)): 0
DAIPSLSECQCGICMEILVEPVTLPCNHTLCKPCFQSTVEKASLCCPFCRRRVSSWTRYH (RNF168 RING domain (UniProt Q8IYW5)): 0
KTLSRFGIQPCSICLGDAKDPVCLPCDHVHCLRCLRAWFASEQMICPYCLTALPDEFSPA (RNF213 RING domain (UniProt Q63HN8)): 0
B2 (CUL9 RING domain): 0
B3 (RNF25 RING domain): 0
B4 (ARK2C RING domain): 0
B5 (TRIM63 RING domain): 0
B6 (TRIM69 RING domain): 0

Block 5
Target: Histone acetyltransferase KAT6A, winged helix 2, GST fusion (KAT6A, Homo sapiens, UniProt Q92794, residues 85-181)
Technique: protein binding microarray
Molecule type: double-stranded DNA, one strand shown
Sample: in vitro
Concentration: not given
Setting: 8-mer, flanks averaged, mean of 2 arrays, mostly near background
Reference: not given
Reading: higher = stronger binding
Measurement: E-score
Residues (chain): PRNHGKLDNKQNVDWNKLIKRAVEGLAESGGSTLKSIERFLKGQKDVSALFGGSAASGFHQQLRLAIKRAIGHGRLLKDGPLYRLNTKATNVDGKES
GTTTATCA: 0.18
AAAGTGAC: -0.0992
ATAAGGCA: 0.00498
CTCCCTTC: 0.0164
GTGGAGTA: -0.0622
GACTTCCC: -0.0352
ATCAAAGA: 0.121
TTACCCAA: -0.181
GTTGCGCA: -0.0436
CAATGACC: -0.0293
AACAAGTC: -0.0142
TAGGTCGA: 0.0693
ATCTAGGA: -0.105
ATTGCAGC: -0.117
ACCCCTGA: -0.00517
CGGCGACC: 0.169
GTGGTCAA: -0.214
ATTGACGG: -0.0146
CTTCGTGC: 0.183
CGAGGCAA: 0.114
ACAAACAC: 0.0845

Block 6
Target: CCNE1, cyclin fold, Cln2 fusion (human)
Technique: yeast growth competition, sequencing
Sample: yeast
Setting: weak parent motif
Reference: not given
Reading: higher = stronger binding
Measurement: normalised enrichment score
Starting sequence: PKN2 docking peptide (human); VSAVQKLDFSDTM
V1I: -0.201
V1G: 0.886
K6T: 0.881
M13F: 0.741
F9C: 0.0308
K6G: 0.163
V1E: 0.561
V4F: 0.431
S2D: -0.222
K6D: 0.0324
K6W: 1.57
S10K: 0.113
L7Q: -0.337
S10H: 0.611
V1H: 0.749
D8M: 1.26
D8I: 0.86
F9T: -0.0895
K6L: 0.494

Block 7
Target: Sal-like protein 4, full length isoform B (SALL4, Homo sapiens, UniProt Q9UJQ4-2, residues 1-616)
Technique: universal PBM
Molecule type: double-stranded DNA, one strand shown
Sample: in vitro
Concentration: not given
Setting: 8-mer, flanks averaged, mean of replicates
Reading: higher = stronger binding
Measurement: E-score
Target sequence (chain): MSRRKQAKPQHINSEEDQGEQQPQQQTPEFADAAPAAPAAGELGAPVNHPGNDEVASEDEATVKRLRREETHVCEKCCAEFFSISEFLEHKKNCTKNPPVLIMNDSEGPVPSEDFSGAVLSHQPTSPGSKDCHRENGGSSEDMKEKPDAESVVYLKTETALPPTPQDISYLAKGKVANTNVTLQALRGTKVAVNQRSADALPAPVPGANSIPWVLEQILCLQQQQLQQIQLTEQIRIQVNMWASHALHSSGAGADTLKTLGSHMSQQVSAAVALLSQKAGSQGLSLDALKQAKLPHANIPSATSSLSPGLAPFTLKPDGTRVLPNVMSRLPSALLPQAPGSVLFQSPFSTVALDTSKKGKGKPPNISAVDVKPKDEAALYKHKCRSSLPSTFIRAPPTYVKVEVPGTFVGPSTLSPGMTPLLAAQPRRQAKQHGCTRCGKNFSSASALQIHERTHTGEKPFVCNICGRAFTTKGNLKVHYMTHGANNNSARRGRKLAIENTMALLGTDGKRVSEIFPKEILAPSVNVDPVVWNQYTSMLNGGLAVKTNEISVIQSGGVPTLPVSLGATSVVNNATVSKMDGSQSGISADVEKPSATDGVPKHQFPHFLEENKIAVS
TACGACCA: -0.0458
CCACAAAC: 0.051
AGAATGGC: -0.035
GAGTGCTA: -0.11
ATGGCAAC: 0.22
GCCTCGCA: -0.189
CTCTCTCA: 0.0395
GCTGCAGA: -0.181
CTGTGAAG: -0.0565
CGAGGTTC: -0.05
GGGTCGAC: -0.294
ACGCAGGA: -0.105
CGATTATA: 0.304
AATACGCC: 0.0938
CCGTTATC: 0.143
GACTCCCA: -0.172
AAACCTCA: -0.0243

Some of these lines once more (block 7):
TACGACCA: -0.0458
CCACAAAC: 0.051
AGAATGGC: -0.035
GAGTGCTA: -0.11
ATGGCAAC: 0.22
GCCTCGCA: -0.189
CTCTCTCA: 0.0395
GCTGCAGA: -0.181
CTGTGAAG: -0.0565
CGAGGTTC: -0.05
GGGTCGAC: -0.294
ACGCAGGA: -0.105
CGATTATA: 0.304
AATACGCC: 0.0938
CCGTTATC: 0.143
GACTCCCA: -0.172
AAACCTCA: -0.0243
